Published values gathered from unrelated publications.
Each numbered part is a random draw from the data of one study; scales do not carry over between parts. “And” joins repeats or separate records; there may be more than shown.
Chain of UniProt Q9UK32 (whole entry, looked up): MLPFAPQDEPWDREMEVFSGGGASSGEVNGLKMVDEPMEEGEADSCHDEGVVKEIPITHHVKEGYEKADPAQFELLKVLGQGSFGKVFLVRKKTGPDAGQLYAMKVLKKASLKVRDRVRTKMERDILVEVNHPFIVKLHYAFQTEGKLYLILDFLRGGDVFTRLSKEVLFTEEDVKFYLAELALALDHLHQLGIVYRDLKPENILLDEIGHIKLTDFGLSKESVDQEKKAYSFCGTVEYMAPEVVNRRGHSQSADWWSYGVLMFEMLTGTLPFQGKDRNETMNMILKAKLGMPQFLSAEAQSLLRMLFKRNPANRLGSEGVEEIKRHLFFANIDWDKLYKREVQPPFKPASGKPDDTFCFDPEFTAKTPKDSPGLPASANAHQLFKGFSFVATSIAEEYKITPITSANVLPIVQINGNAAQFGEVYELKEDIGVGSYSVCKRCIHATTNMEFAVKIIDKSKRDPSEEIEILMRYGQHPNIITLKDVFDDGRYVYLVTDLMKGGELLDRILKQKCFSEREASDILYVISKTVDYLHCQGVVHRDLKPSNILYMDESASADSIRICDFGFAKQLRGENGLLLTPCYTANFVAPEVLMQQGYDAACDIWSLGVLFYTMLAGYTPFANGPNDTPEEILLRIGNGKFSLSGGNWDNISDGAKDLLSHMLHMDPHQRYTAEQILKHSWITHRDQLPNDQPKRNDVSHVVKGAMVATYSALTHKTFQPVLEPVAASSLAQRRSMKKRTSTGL
Chain of UniProt Q00537 (whole entry, looked up): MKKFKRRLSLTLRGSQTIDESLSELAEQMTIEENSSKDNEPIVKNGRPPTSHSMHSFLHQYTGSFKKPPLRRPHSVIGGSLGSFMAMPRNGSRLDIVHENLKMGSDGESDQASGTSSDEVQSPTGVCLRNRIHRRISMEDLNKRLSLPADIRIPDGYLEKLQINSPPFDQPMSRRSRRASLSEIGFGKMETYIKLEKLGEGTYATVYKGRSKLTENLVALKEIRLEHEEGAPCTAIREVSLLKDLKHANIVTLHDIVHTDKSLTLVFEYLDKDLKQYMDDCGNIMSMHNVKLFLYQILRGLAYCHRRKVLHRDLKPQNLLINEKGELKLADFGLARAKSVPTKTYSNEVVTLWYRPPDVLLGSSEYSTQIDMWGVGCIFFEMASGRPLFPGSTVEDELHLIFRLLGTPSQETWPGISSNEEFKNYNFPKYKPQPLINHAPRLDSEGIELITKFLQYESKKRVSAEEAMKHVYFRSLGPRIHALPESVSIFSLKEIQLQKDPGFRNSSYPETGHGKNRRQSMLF
Chain of UniProt Q02750 (whole entry, looked up): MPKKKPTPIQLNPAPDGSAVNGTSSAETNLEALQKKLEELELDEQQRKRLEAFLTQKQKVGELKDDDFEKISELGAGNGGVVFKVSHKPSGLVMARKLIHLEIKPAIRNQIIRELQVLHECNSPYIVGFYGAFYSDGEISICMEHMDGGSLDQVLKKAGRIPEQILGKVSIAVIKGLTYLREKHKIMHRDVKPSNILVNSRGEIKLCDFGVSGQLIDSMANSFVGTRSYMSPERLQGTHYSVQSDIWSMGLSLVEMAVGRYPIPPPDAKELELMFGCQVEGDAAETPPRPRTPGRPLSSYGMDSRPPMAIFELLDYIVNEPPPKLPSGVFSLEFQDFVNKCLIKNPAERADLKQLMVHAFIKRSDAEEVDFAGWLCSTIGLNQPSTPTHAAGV
Chain of UniProt P11362 (whole entry, looked up): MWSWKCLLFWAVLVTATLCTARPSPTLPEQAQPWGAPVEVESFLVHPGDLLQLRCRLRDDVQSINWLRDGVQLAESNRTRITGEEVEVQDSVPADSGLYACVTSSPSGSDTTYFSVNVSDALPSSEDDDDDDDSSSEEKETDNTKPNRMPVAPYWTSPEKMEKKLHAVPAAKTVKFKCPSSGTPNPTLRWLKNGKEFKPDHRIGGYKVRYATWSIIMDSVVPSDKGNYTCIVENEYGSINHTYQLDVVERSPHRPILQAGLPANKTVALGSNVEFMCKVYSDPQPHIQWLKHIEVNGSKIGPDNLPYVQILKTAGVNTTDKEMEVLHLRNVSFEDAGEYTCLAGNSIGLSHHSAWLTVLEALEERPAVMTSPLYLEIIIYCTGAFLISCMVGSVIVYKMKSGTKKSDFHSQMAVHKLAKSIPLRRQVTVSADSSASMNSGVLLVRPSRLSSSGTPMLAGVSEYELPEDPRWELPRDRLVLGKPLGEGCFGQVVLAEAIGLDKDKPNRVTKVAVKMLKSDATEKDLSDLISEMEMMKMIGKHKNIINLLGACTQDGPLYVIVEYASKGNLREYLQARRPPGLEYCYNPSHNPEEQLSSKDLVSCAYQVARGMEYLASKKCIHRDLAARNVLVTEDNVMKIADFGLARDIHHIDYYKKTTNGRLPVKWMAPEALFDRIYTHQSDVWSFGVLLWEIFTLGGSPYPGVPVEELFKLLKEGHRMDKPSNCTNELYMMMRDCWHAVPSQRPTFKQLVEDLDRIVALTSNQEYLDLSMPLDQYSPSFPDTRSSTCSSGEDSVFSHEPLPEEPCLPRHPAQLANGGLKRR
Chain of UniProt P19784 (whole entry, looked up): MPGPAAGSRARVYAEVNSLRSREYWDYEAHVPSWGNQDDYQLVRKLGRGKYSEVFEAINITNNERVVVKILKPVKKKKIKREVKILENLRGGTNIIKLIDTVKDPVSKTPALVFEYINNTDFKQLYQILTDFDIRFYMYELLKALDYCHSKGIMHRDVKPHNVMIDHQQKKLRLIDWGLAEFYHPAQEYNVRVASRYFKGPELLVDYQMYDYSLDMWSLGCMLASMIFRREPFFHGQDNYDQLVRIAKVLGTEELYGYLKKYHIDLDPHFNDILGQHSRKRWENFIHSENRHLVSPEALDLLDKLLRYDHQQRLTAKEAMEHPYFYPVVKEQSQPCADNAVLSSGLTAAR
Chain of UniProt P45985 (whole entry, looked up): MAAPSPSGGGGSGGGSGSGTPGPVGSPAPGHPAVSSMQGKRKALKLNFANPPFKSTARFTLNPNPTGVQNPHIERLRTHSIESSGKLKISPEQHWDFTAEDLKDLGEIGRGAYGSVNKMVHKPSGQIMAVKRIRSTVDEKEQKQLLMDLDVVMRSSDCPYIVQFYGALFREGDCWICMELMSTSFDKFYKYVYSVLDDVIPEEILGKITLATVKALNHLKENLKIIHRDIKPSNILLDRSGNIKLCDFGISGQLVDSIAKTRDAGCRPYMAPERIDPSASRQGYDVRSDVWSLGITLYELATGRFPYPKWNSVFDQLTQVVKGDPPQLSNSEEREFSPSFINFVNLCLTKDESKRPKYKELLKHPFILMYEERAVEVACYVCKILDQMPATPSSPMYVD
Chain of UniProt Q9HBH9 (whole entry, looked up): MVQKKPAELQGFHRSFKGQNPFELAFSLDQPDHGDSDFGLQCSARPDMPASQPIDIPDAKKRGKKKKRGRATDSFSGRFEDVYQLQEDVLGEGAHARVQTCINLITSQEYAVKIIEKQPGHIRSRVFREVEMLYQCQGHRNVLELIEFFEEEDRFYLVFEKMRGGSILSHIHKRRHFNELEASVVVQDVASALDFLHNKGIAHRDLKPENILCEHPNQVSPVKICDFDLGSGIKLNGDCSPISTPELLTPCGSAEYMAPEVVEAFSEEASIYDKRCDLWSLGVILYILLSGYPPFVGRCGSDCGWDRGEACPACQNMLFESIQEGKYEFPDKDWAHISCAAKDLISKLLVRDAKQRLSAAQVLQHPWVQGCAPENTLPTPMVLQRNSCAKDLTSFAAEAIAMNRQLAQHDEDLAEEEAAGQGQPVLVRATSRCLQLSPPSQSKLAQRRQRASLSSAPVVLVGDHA

Sample 1 — cell line: HaCaT; concentration: 100 µM; time: 60 h; measurement: viability
SMILES = CO/N=C(\C(=O)N[C@@H]1C(=O)N2C(C(=O)O)=C(C[N+]3(C)CCCC3)CS[C@H]12)c1csc(N)n1; result = 144%
SMILES = C[C@H](CCC(=O)O)[C@H]1CC[C@H]2[C@@H]3CC[C@@H]4C[C@H](O)CC[C@]4(C)[C@H]3C[C@H](O)[C@]12C; result = 119%
SMILES = CC(=O)[C@@]1(O)CC[C@H]2[C@@H]3CCC4=CC(=O)CC[C@]4(C)[C@H]3CC[C@@]21C; result = 107%
SMILES = CCOC(=O)c1c(CSc2ccccc2)n(C)c2cc(Br)c(O)c(CN(C)C)c12; result = 13.9%
SMILES = COc1cc2c(cc1OC)[C@@H]1Cc3ccc(OC)c(OC)c3CN1CC2; result = 129%

Sample 2 — read-out: enzyme activity; mode: inhibitor; concentration: 0.5 µM; reference: control; measurement: remaining activity
Target: Receptor tyrosine-protein kinase erbB-2 (ERBB2, Homo sapiens, UniProt P04626)
SMILES = O=C(Nc1cccc(Nc2nccc(Nc3cccc(C(F)(F)F)c3)n2)c1)C1CC1; result = 93.8%
SMILES = Cc1nc2cc3nc(-c4cccs4)cnc3cc2n1C; result = 92%
SMILES = COc1cc2ncnc(Nc3cccc(Cl)c3)c2cc1OC; result = 22.5%
SMILES = CCN(CC)C(=O)c1ccc(Nc2nc(OCC3CCCCC3)c3[nH]cnc3n2)cc1; result = 99.4%
SMILES = O=C1C(Cl)=C(N2C(=O)CCC2=O)C(=O)c2ccccc21; result = 95.4%
SMILES = O=C(NC(NC(=S)Nc1ccc(F)c([N+](=O)[O-])c1)C(Cl)(Cl)Cl)C(c1ccccc1)c1ccccc1 (stereo not drawn); result = 94.8%
SMILES = Nc1cccc(-c2cc3c(Oc4cccc(O)c4)ncnc3[nH]2)c1; result = 76.6%
SMILES = COc1cc2ncnc(Nc3ccc(O)c(Br)c3)c2cc1OC; result = 33.1%
SMILES = Cc1cc2ncc(-c3ccccc3)nc2cc1C; result = 97.4%
SMILES = CCOc1nc(NC(=O)Cc2cc(OC)ccc2OC)cc(N)c1C#N; result = 101%
SMILES = Cc1cn(-c2cc(NC(=O)c3ccc(C)c(Nc4nccc(-c5cccnc5)n4)c3)cc(C(F)(F)F)c2)cn1; result = 104%
SMILES = c1ccc(-c2[nH]ncc2-c2ccnc3ccccc23)nc1; result = 106%
SMILES = N#Cc1c(NC(=O)c2cccc3ccccc23)sc2c1CCCC2; result = 97.6%

Sample 3 — read-out: cell-free assay; method: competition with immobilised ligand; concentration: 1 µM; measurement: remaining binding
SMILES: CCc1ccccc1C(=O)Nc1n[nH]c2c(C)c(F)c(C3C(C#N)=C(C)N(C)C(C)=C3C#N)cc12
target = Wee1-like protein kinase (WEE1, Homo sapiens, UniProt P30291); result = 100%
target = Casein kinase II subunit alpha' (CSNK2A2, Homo sapiens, UniProt P19784); result = 100%
target = Dual specificity mitogen-activated protein kinase kinase 1 (MAP2K1, Homo sapiens, UniProt Q02750); result = 100%
target = Ribosomal protein S6 kinase alpha-6, C-terminal kinase domain (RPS6KA6, Homo sapiens, UniProt Q9UK32); result = 100%
target = Receptor-type tyrosine-protein kinase FLT3 (FLT3, Homo sapiens, UniProt P36888, D835V/ITD); result = 12%
target = Fibroblast growth factor receptor 1 (FGFR1, Homo sapiens, UniProt P11362); result = 97%
target = Mitogen-activated protein kinase kinase kinase 3 (MAP3K3, Homo sapiens, UniProt Q99759); result = 100%
target = Dual specificity mitogen-activated protein kinase kinase 4 (MAP2K4, Homo sapiens, UniProt P45985); result = 100%
target = Serine/threonine-protein kinase Nek5 (NEK5, Homo sapiens, UniProt Q6P3R8); result = 100%
target = Cyclin-dependent kinase 17 (CDK17, Homo sapiens, UniProt Q00537); result = 93%
target = MAP kinase-interacting serine/threonine-protein kinase 2 (MKNK2, Homo sapiens, UniProt Q9HBH9); result = 98%
target = Mitogen-activated protein kinase kinase kinase 15 (MAP3K15, Homo sapiens, UniProt Q6ZN16); result = 96%
target = Hepatocyte growth factor receptor (MET, Homo sapiens, UniProt P08581, M1250T); result = 25%
target = Dual specificity tyrosine-phosphorylation-regulated kinase 1B (DYRK1B, Homo sapiens, UniProt Q9Y463); result = 100%

Mixed results
Compound = COc1ccc(-c2c(Nc3ccccn3)[nH]c3c(C4=CCCCC4)c(-c4ccccc4)nn3c2=O)cc1; method = LC-MS/MS; species = human; medium = plasma; route = oral; dose = 50 mg once daily; measurement = Cmin; result = 1090 ng/mL and 1160 ng/mL and 858 ng/mL

Repeated from above (sample 3):
target = Fibroblast growth factor receptor 1 (FGFR1, Homo sapiens, UniProt P11362); result = 97%
target = Mitogen-activated protein kinase kinase kinase 3 (MAP3K3, Homo sapiens, UniProt Q99759); result = 100%
target = Dual specificity mitogen-activated protein kinase kinase 4 (MAP2K4, Homo sapiens, UniProt P45985); result = 100%
